# Assay results from different studies.
# Numbered parts are unrelated; each lists some results of a single study. Positions count from the first letter of the parent shown.

# Block 1 — method: DHFR PCA, deep sequencing; matrix: yeast; together with: (+)-ABA 17 µM; relative to: wild-type fitted maximum; reading: higher = stronger binding
# Target: ABI1, truncated, D143A, DHFR fusion (Arabidopsis thaliana)
# Notes: methotrexate growth selection, single substitutions
# Starting sequence: PYL1, truncated, DHFR fusion (Arabidopsis thaliana); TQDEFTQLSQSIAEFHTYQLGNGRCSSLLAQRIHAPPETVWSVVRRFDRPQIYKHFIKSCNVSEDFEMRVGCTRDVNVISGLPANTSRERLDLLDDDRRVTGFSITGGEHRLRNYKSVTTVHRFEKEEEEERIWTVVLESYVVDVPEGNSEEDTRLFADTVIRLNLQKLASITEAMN; partner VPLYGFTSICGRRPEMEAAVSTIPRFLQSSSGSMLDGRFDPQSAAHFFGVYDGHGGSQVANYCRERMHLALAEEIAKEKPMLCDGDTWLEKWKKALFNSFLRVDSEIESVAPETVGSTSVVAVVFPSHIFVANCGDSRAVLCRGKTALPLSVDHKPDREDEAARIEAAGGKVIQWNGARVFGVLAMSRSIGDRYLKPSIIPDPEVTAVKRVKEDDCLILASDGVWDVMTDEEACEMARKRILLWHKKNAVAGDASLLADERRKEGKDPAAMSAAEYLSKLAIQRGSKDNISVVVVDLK
Substitution,relative binding score
P50K,-15.3%
G23E,59.7%
T106M,79.6%
T73R,62.4%
Q2E,84%
H55L,88.9%
L166I,2.3%

# Block 2 — method: RNA Bind-n-Seq; form: RNA; matrix: in vitro; tested at: 200 nM; notes: whole 134-nt RNA, ends assumed; together with: 150 mM KCl; relative to: input library; reading: higher = stronger binding
# Target: Fragile X messenger ribonucleoprotein 1, C-terminal low-complexity region (Fmr1, Mus musculus, UniProt P35922)
# All sequences stand within: GGGAGUUCUACAGUCCGACGAUC … UGGAAUUCUCGGGUGUCAAGG
Strand,log2 enrichment
UUGGAAGAGACCAGUGAAAUUCGAUCUGACUUGGAGCAGUUAGACCACGAGGUUAAGGAGGCUCAGACACUGUGCGAUGAACUCUCAGUG,0.646
AAGUCCUGUGCUACACAUCGUAUGUACCGAAUCGGUGGUUUUUUUGGUUUUUUUGGAAAGUAUUAUGUUACGCCGUUCGGAUCUGCACUU,-0.857
AGUCCUGUGCUACACAUCGUAUGUACCGAAUCGGGUUUUUGGGGUUUUUGGUUUUUGGAAAGUAUUAUGUUACGCCGUUCGGAUCUGCAC,-0.192
CAAGUCCUGUGCUACACAUCGUAUGUACCGAAUCGGAAAAAAAGGUGGAAAAAGGAAAGUAUUAUGUUACGCCGUUCGGAUCUGCACUUC,-0.699
AGUCCUGUGCUACACAUCGUAUGUACCGAAUCAAAUUUAAAUUUUUUUAAACCCAAAAAAGUAUUAUGUUACGCCGUUCGGAUCUGCACU,0.0228
ACCAUGCAGGUGGGCAUCUUUGGGAAGUGGGGCAAGGGGGGGAUAGGGAGGGGGGUAACAAUUUGGGAACAGGUGGUCCCAGGUCGUUUC,0.62
UCAAGUCCUGUGCUACACAUCGUAUGUACCGAAUCGGGUUUGGGAAAGGGAGGGAAAGUAUUAUGUUACGCCGUUCGGAUCUGCACUUCC,1.12

# Block 3 — target: CCNB2, cyclin fold, Cln2 fusion (human); method: yeast growth competition, sequencing; matrix: yeast; notes: weak parent motif; relative to: not given; reading: higher = stronger binding
# Starting sequence: MASTL docking peptide (human); PMIAKNLMCELDE
Substitution,normalised enrichment score
L11E,0.202
L7H,-1.18
K5V,-0.304
E10D,0.117
L7S,-0.212
A4F,-0.324
N6L,0.0856
N6Q,0.223

# Mixed results
Substance,target,test,test system,conditions,how to read,endpoint,value
"PhoQ, residues 284 288 289 292 302 303 ALSMDL","PhoP, residues 12 14 15 18 19 SQCLL (Escherichia coli, UniProt P23836)","Sort-seq, refers to: YFP reporter",E. coli,"PhoQ-PhoP variant library, together with: 10 µM Mg2+","relative to: high Mg2+ state, higher = stronger signaling",fold induction,1.54

# Repeated from above (block 2):
Strand,log2 enrichment
UUGGAAGAGACCAGUGAAAUUCGAUCUGACUUGGAGCAGUUAGACCACGAGGUUAAGGAGGCUCAGACACUGUGCGAUGAACUCUCAGUG,0.646
CAAGUCCUGUGCUACACAUCGUAUGUACCGAAUCGGAAAAAAAGGUGGAAAAAGGAAAGUAUUAUGUUACGCCGUUCGGAUCUGCACUUC,-0.699
AGUCCUGUGCUACACAUCGUAUGUACCGAAUCGGGUUUUUGGGGUUUUUGGUUUUUGGAAAGUAUUAUGUUACGCCGUUCGGAUCUGCAC,-0.192
